Experimental data gathered from unrelated publications.
Each line is one published result; not all experiments were run side by side.
Cell line: MCF7

For `Cc1cc2c(F)c(OS(=O)(=O)Oc3ccc4c(c3)CC[C@@H]3[C@@H]4CC[C@]4(C)C(=O)CC[C@@H]34)ccc2[nH]1`, the IC50 was 6.6 µM (72 h).
With `Cc1c(COc2cc(OCc3cccc(C#N)c3)c(CNC(CO)(CO)CO)cc2Cl)cccc1-c1cccc(OCCCCCC(=O)NO)c1` the IC50 was 5.95 µM (cell growth or viability, CCK-8; 48 h).
`CCC(=CCc1c(O)cc2c(c1O)C(=O)CC(c1ccc(OC)c(O)c1)O2)CC` (centres unmarked) has an IC50 of 18.2 µM (cell growth or viability, MTT; 48 h).
`O=C(c1ccccc1Cl)N1CCN(CC(OCc2ccc3ccccc3c2)c2ccc(Cl)cc2Cl)CC1` (centres unmarked) has an IC50 of greater than 50 µM (cell growth or viability, MTT; 24 h).
`COc1ccccc1/C=C1\C(=O)N(C)c2ccc(N(C)c3nc(C)nc4ccccc34)cc21` gave an IC50 of 1.02 µM (cell growth or viability, MTT).
The IC50 of `O=C(CCC(=O)N1CCN(c2nc(N3CCOCC3)nc(-n3c(C(F)F)nc4ccccc43)n2)CC1)NCCCCCC(=O)Nc1cccc2c1C(=O)N(C1CCC(=O)NC1=O)C2=O` (centres unmarked) is reported as 2.51 µM (inhibitor, In-Cell Western, item: Akt pSer473; 2 h).
`O=C(CN1CCCCC1)N1CCN(CC(OCc2ccc3ccccc3c2)c2ccc(Cl)cc2Cl)CC1` (centres unmarked) gave an IC50 of 17.6 µM (cell growth or viability, MTT; 24 h).
For `Cc1nc(Nc2ccc3c(c2)/C(=C/c2c[nH]c4ccccc24)C(=O)N3)c2ccccc2n1`, the IC50 was 0.44 µM (cell growth or viability, MTT).
With `CC(C)(C)OC(=O)N1CCN(CC(OCc2ccc3ccccc3c2)c2ccc(Cl)cc2Cl)CC1` (centres unmarked) the IC50 was 25.4 µM (cell growth or viability, MTT; 24 h).
The IC50 of `NC(=O)c1ccc(-c2ccccc2Cl)c2c3c([nH]c12)CC[C@@H](N)C3` is reported as 0.0179 µM (cell proliferation; 96 h).
`Cc1ccnc(-c2cc(C)ccn2)c1.[Co+2].[O-]c1c(I)cc(I)c2cccnc12.[O-]c1c(I)cc(I)c2cccnc12` has an IC50 of 33 µM (cell growth or viability, MTT; 48 h).
`CCC(=CCc1c(O)cc2c(c1O)C(=O)CC(c1cccc(O)c1)O2)CC` (centres unmarked) has an IC50 of 32.6 µM (cell growth or viability, MTT; 48 h).
`NC(=S)NN=Cc1ccc([N+](=O)[O-])o1` gave an IC50 of 30.8 µM (cell growth or viability, resazurin).
The IC50 of `CC(C)c1ccc(N(C)c2ccc3c(c2)OCC[C@H]3CNc2cnccc2C(=O)O)cc1` is reported as 0.435 µM (cell growth or viability, ATP luminescence; 7 days).
With `Cc1ccc(CN2C3(NC(c4ccc(C)cc4)C24C(=O)Nc2ccccc24)C(=O)Nc2ccccc23)cc1` (centres unmarked) the IC50 was 60.2 µM (cell growth or viability, MTT; 48 h).
With `CCOC(=O)/C=C1\S/C(=N\N=C\c2cccc3cc4ccccc4nc23)N(c2cccc(OC)c2)C1=O` the IC50 was greater than 50 µM (cell growth or viability, MTT; 48 h).
For `Clc1ccc(C(Cn2ccnc2)OCc2ccc(Br)cc2)c(Cl)c1` (centres unmarked), the IC50 was greater than 50 µM (cell growth or viability, MTT; 24 h).
For `Cc1ccc2c(Cl)cc(Cl)c([O-])c2n1.Cc1ccc2c(Cl)cc(Cl)c([O-])c2n1.Clc1ccnc2c1ccc1c(Cl)ccnc12.[Co+2]`, the IC50 was 6.18 µM (cell growth or viability, MTT; 48 h).
For `COc1cccc(N2C(=O)CS/C2=N\N=C\c2cccc3cc4ccccc4nc23)c1`, the IC50 was greater than 50 µM (cell growth or viability, MTT; 48 h).
`COc1ccc(CNC[C@@](O)(COCc2ccccc2)[C@@H]2CC[C@@H](C)C[C@H]2OCc2ccccc2)cc1` gave an IC50 of 2.12 µM (cell growth or viability, MTT; 72 h).
The IC50 of `CC(=O)[O][Pd][c]1ccccc1-n1nc(C)cc1C.CC(=O)[O][Pd][c]1ccccc1-n1nc(C)cc1C` is reported as 16.8 µM (cell growth or viability, MTT).
For `Nc1ncc(-c2nc(N3CCOCC3)nc(N3CCN(C(=O)CCC(=O)NCCCCCCCCC#Cc4cccc5c4C(=O)N(C4CCC(=O)NC4=O)C5=O)CC3)n2)c(C(F)F)n1` (centres unmarked), the IC50 was 0.0312 µM (inhibitor, In-Cell Western, item: Akt pSer473; 2 h).
`Cc1ccc2c(Br)cc(Br)c([O-])c2n1.Cc1ccc2c(Br)cc(Br)c([O-])c2n1.[Co+2].c1ccc(-c2ccccn2)nc1` has an IC50 of 12 µM (cell growth or viability, MTT; 48 h).
With `Cc1c(COc2cc(OCc3cccc(C#N)c3)c(CNC(C)(CO)CO)cc2Cl)cccc1-c1cccc(OCCCCCC(=O)NO)c1` the IC50 was greater than 20 µM (cell growth or viability, CCK-8; 48 h).
For `CN1CCC(N[C@H]2CCc3[nH]c4c(C(N)=O)ccc(-c5ccccc5Cl)c4c3C2)CC1`, the IC50 was 0.261 µM (cell proliferation; 96 h).
The IC50 of `C[C@H]1[C@H](C)CC[C@]2(C)CC[C@]3(C)C(=CC(=O)[C@@H]4[C@@]5(C)CC[C@@H](O)[C@](C)(C(=O)O)[C@@H]5CC[C@]43C)[C@H]12` is reported as 122 µM (cell growth or viability, MTT; 24 h).
For `O=C1/C(=N\c2ccc(Cl)cc2Br)c2ccccc2N1Cc1cccc(Cl)c1` (mixture of isomers), the IC50 was 7.39 µM (cell growth or viability, MTT; 48 h).
`CCNC(NN=Cc1ccc([N+](=O)[O-])o1)=[S+][Au-][Cl]` has an IC50 of 35.1 µM (cell growth or viability, resazurin).
`CCOC(=O)/C=C1\S/C(=N\N=C\c2cccc3cc4ccccc4nc23)N(c2ccccc2)C1=O` gave an IC50 of greater than 50 µM (cell growth or viability, MTT; 48 h).
With `O=C1/C(=N\c2ccc(Cl)cc2Br)c2ccccc2N1Cc1ccccc1` (mixture of isomers) the IC50 was 13.1 µM (cell growth or viability, MTT; 48 h).
`CCOC(=O)/C=C1\S/C(=N\N=C\c2cccc3cc4ccccc4nc23)N(c2ccc(F)cc2)C1=O` has an IC50 of greater than 50 µM (cell growth or viability, MTT; 48 h).
The IC50 of `C[C@@H]1CC[C@@H]([C@@](O)(CNCc2ccc(F)cc2)COCc2ccccc2)[C@H](OCc2ccccc2)C1` is reported as 2.56 µM (cell growth or viability, MTT; 72 h).
For `O=C1Nc2ccccc2C12NC(c1ccc(Cl)c(Cl)c1)C1(C(=O)Nc3ccccc31)N2Cc1ccc(Cl)c(Cl)c1` (centres unmarked), the IC50 was 42.1 µM (cell growth or viability, MTT; 48 h).
For `CN(C)c1ccc(/C=C/c2cc(/C=C3\Sc4ccccc4N3CCCN3CCCC3)c3ccccc3[n+]2C)cc1`, the IC50 was 4.35 µM (cell growth or viability, MTT; 36 h).
`C=CCc1c(O)cc2c(c1O)C(=O)CC(c1ccc(O)cc1)O2` (centres unmarked) gave an IC50 of 114 µM (cytotoxicity, MTT; 48 h, from log IC50).
With `O=C(c1ccc(Cl)cc1Cl)N1CCN(CC(OCc2ccc3ccccc3c2)c2ccc(Cl)cc2Cl)CC1` (centres unmarked) the IC50 was 44.5 µM (cell growth or viability, MTT; 24 h).
The IC50 of `c1ccc2nc3c4cccnc4c4ncccc4c3nc2c1` is reported as greater than 50 µM (cell growth or viability, MTT; 48 h).
`CC(=O)N[C@@H](CCCNC(=N)N)C(=O)N[C@@H](Cc1c[nH]c2ccccc12)C(=O)N[C@@H](CCCNC(=N)N)C(=O)N[C@@H](Cc1c[nH]c2ccccc12)C(=O)N[C@@H](CCCNC(=N)N)C(=O)N[C@@H](Cc1c[nH]c2ccccc12)C(N)=O` has an IC50 of greater than 100 µM (cell viability; 48 h, light irradiation 2.5 min).
